Experimental data from different studies.
“And” joins repeats or separate records; there may be more than shown.
Target: Glycogen synthase kinase-3 alpha (GSK3A, Homo sapiens, UniProt P49840)
UniProt P49840, sequence (whole entry, unmodified, looked up): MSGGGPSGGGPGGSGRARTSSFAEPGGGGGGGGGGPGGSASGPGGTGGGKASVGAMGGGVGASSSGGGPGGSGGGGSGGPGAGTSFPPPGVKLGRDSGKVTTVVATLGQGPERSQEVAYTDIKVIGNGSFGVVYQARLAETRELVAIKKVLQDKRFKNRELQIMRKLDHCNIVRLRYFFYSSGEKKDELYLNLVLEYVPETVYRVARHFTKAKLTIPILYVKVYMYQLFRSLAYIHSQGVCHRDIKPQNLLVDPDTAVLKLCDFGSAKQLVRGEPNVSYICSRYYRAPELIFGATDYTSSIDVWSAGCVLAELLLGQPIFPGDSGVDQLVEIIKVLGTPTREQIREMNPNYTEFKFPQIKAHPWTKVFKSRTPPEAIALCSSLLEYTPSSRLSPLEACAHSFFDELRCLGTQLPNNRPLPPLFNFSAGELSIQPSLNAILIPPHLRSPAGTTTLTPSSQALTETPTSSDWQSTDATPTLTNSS

SMILES | assay | test system | setting | scale | measurement | result
COc1c(OCCCN2CCOCC2)ccc2c1N=C(NC(=O)c1cnc(N)nc1)N1CCN=C21 | kinase activity, inhibitor | – | 1 µM | baseline: untreated control | remaining activity | 122%
Cc1ccc(-c2c(/C=C(\C#N)C(=O)NC(C)C)n(CCCO)c3ncnc(N)c23)cc1 | cell-free assay, competition with immobilised ligand | – | 1 µM | – | remaining binding | 100%
O=C=[N][Ru-4]123([n]4c5ccc(O)cc5c5c6c(c7cc(F)c[n+]1c7c54)C(=O)NC6=O)[S+]1CC[S+]2CC[S+]3CC1 (centres unmarked) | enzyme activity | – | 100 nM, human enzyme, together with: 10 µM ATP | baseline: untreated | remaining activity | 58%
NC(=O)C[C@H]1CCc2sc3ncnc(O[C@H]4CC[C@H](N5CCOCC5)CC4)c3c21 | enzyme activity, inhibitor | – | 10 µM | – | inhibition | 20%
COCC12C(=O)NC3C4(C(OC)CC1O)C1CC5(O)C(OC)C(O)C(OC(C)=O)(C1C5OC(=O)c1ccccc1)C3(O)C(OC)C24 (centres unmarked) | kinase activity, inhibitor, ProQinase kinase profiling | – | 25 µM | baseline: control | remaining activity | 90% and 102%
CNC(=O)C1CCN(c2cc(C)c(F)cc2NC(=O)c2ccc(-c3cc(O)ccc3C)c(C)c2)CC1 | binding, competition with immobilised ligand | – | 1 µM | – | remaining binding | 95%
Cc1cnc2nc1Nc1cccc(c1)COC/C=C/COCc1cc(ccc1OCCN1CCOCC1)N2 | binding | – | 0.1 µM | – | remaining binding | 83%
O=C(Nc1cc(-c2ccnc3[nH]ccc23)c(Cl)cn1)[C@H]1CCC[C@@H](NC(=O)C(F)(F)F)C1 | binding, competition with immobilised ligand | – | 0.1 µM | – | remaining binding | 19%
Cc1cccc(O[C@H]2CCC[C@@H](C(C)CNCc3ccncc3)C2)c1 (relative stereo) | enzyme activity, inhibitor | – | 10 µM | – | inhibition | -9%
COc1cc(Nc2nc(C)cc(-c3cnn4nc(OC)ccc34)n2)cc(C(F)(F)F)c1 | inhibitor | – | 1 µM | baseline: control | remaining activity | 100%
C=CC(=O)N1CCCC(n2c(=O)c3ncccc3n(Cc3ccc(Oc4ccccc4)cc3)c2=O)C1 (centres unmarked) | cell-free assay, competition with immobilised ligand | – | 1 µM | – | remaining binding | 98%
CC(C)=CC1OC(C)(C)C2C=C3C(=O)C(Cl)=CC(O)C3C3C(O)C4OC4C(=O)C132 (centres unmarked) | cell-free assay, competition with immobilised ligand | – | 10 µM | – | remaining binding | 98%
C=CC(=O)Nc1cccc(-c2cnc3[nH]cc(C(=O)NC(C)(C)C)c3n2)c1 | enzyme activity, inhibitor | – | 0.1 µM | – | inhibition | 78%
CS(=O)(=O)Nc1cccc(-c2csc3cnc(Nc4ccc(N5CCN(CCCCCOc6cccc7c6C(=O)N(C6CCC(=O)NC6=O)C7=O)CC5)cc4)nc23)c1 (centres unmarked) | probe labelling, inhibitor, KiNativ chemoproteomics | MOLT-4 | 1 µM | – | inhibition | -3.95%
O=C(Cc1ccc(OCc2ccccc2)cc1)NC1(C(=O)O)CCN(C(=O)c2ccc(-c3cccc(Cl)c3)cc2)CC1 | enzyme activity, inhibitor | – | 10 µM | – | activity vs control | 95%
Nc1ncc2c(n1)-c1c([nH]c3ccc(C4=CCOCC4)cc13)CCC2 | binding, competition with immobilised ligand | – | 1 µM | – | remaining binding | 100%
CCn1cc(C(=O)O)c(=O)c2c(N)c(F)c(NC3CCCCC3)cc21 | enzyme activity, inhibitor | – | 0.1 µM | – | inhibition | > 70%

Repeated from above:
SMILES | assay | test system | setting | scale | measurement | result
Cc1ccc(-c2c(/C=C(\C#N)C(=O)NC(C)C)n(CCCO)c3ncnc(N)c23)cc1 | cell-free assay, competition with immobilised ligand | – | 1 µM | – | remaining binding | 100%
